Measured values gathered from unrelated publications.
“And” joins repeats or separate records; there may be more than shown. Numbers after ± are the reported error.

Compound | assay | system | setting | how to read | quantity | result
CC1=NN(c2ccccc2)C(=O)C1 | – | rat Sprague-Dawley pups PN4, left cerebral cortex | intraperitoneal, 30 mg/kg, 1 h | – | tissue concentration | 290 ± 76.1 ng/mL
C[C@@H](NC(=O)N1C(=O)[C@H](Cc2ccnc(N)c2)[C@H]1C(=O)O)C1CCCCC1 | UPLC-MS/MS | healthy adult Chinese volunteers, plasma | continuous intravenous infusion, 2.25 mg/kg/h, day 1 of 5-day infusion, median | – | time to steady state | 1.5 h
O=C(O)CNC(=O)c1ccccc1 | – | human CSF | concentration not given, mean | – | CSF concentration | not detected
CC(C)n1c(Nc2cccnc2)nc2cnc(Nc3ccc(N4CCN(C)CC4)cc3)nc21 | item: gum pain | healthy male subjects | oral, 100 mg, study, with: gemfibrozil | – | subjects with adverse event | 0%
C[C@@H](Nc1cc(F)cc(F)c1)c1cc(C(=O)N(C)C)cc2c(=O)cc(N3CCOCC3)oc12 | – | human | oral, 120 mg twice daily, pooled, geometric LSM, with: abiraterone 1000 mg | – | AUC(tau) | 4410 ng·h/mL
CC[C@H](C)[C@H](NC(=O)[C@H](Cc1ccccc1)NC(=O)[C@H](CCC(=O)O)NC(=O)[C@H](CCCCNC(=O)COCCOCCNC(=O)COCCOCCNC(=O)CC[C@H](NC(=O)CCCCCCCCCCCCCCCCC(=O)O)C(=O)O)NC(=O)[C@H](C)NC(=O)[C@H](C)NC(=O)[C@H](CCC(N)=O)NC(=O)CNC(=O)[C@H](CCC(=O)O)NC(=O)[C@H](CC(C)C)NC(=O)[C@H](Cc1ccc(O)cc1)NC(=O)[C@H](CO)NC(=O)[C@H](CO)NC(=O)[C@@H](NC(=O)[C@H](CC(=O)O)NC(=O)[C@H](CO)NC(=O)[C@@H](NC(=O)[C@H](Cc1ccccc1)NC(=O)[C@@H](NC(=O)CNC(=O)[C@H](CCC(=O)O)NC(=O)C(C)(C)NC(=O)[C@@H](N)Cc1cnc[nH]1)[C@@H](C)O)[C@@H](C)O)C(C)C)C(=O)N[C@@H](C)C(=O)N[C@@H](Cc1c[nH]c2ccccc12)C(=O)N[C@@H](CC(C)C)C(=O)N[C@H](C(=O)N[C@@H](CCCNC(=N)N)C(=O)NCC(=O)N[C@@H](CCCNC(=N)N)C(=O)NCC(=O)O)C(C)C | 12-lead Holter ECG | healthy humans | subcutaneous, 1.5 mg once weekly, 24 h, steady state | relative to: placebo | QT change from baseline | -21.9 ms
C[C@@H]1CN(c2c(F)c(N)c3c(=O)c(C(=O)O)cn(C4CC4)c3c2F)C[C@H](C)N1 | – | male Hartley guinea pigs, anaesthetized | intravenous, 10 mg/kg over 10 min, after infusion | – | heart rate | 201 ± 0.5 beats/min
COc1cc(Nc2ncc3c(n2)-c2ccc(Cl)cc2C(c2c(F)cccc2OC)=NC3)ccc1C(=O)O | – | patients | oral, dose not given, grade 1, any attribution, with: pembrolizumab | – | decreased platelet count incidence | 21%
Cc1c(Cl)c(C)[n+]([O-])c(Cl)c1-c1noc(-c2cc(O)c(O)c([N+](=O)[O-])c2)n1 | – | healthy Caucasian subjects | oral, 25 mg | – | TEAEs causing discontinuation | 0%
COc1cc(C(=O)O)ccc1OS(=O)(=O)O | – | human CSF | concentration not given, mean | – | CSF concentration | not detected
COc1cc2nccc(Oc3ccc(NC(=O)c4cc5c(n(-c6ccccc6)c4=O)CCCC5=O)nc3)c2cc1OC | – | human, relapsed/refractory AML | oral, 3 mg once daily, grade ≥3, any causality | – | patients with hypotension | 0%
O=c1c(O)c(-c2cc(O)c(O)c(O)c2)oc2cc(O)cc(O)c12 | – | human CSF | concentration not given, mean | – | CSF concentration | not detected
C=CCn1c(=O)c2cnc(Nc3ccc(N4CCN(C)CC4)cc3)nc2n1-c1cccc(C(C)(C)O)n1 | – | human | oral, 175 mg twice daily, monotherapy lead-in, -5 days | geometric mean | AUC(0-t) | 7.5 µM·h
Cc1cc(OCCOCCC(F)(F)P(=O)(O)O)ccc1CCc1cnc2c(N)nc3cc(CCC(=O)O)ccc3c2c1 | – | human, serum | intratumoral, 200 µg every 2 weeks, cycle 1 day 1 | – | AUC(tau) | 25.8 ng·h/mL
CC(C)NC(=O)COc1cccc(-c2nc(Nc3ccc4[nH]ncc4c3)c3ccccc3n2)c1 | – | human, male, fed, plasma | oral, 200 mg, day 3, geometric mean | – | AUC(0-tau) | 9330 ng·h/mL
C[C@H](CS)C(=O)N1CCC[C@H]1C(=O)O | – | male Hartley guinea pigs, anaesthetized | intravenous, 30 mg/kg group, baseline before infusion | – | heart rate | 214 ± 0.5 beats/min
CN(CCC(=O)O)C(=O)c1ccc2c(c1)CC[C@@H]1[C@@H]2CC[C@]2(C)C(c3cncc(F)c3)=CC[C@@H]12 | – | premenopausal women, endometriosis pain, serum | 60 mg twice daily, visit 4, median | relative to: baseline | indirect bilirubin change | 0.38 mg/dL
CCOc1c([C@H](C)n2nc(C)c3c(N)ncnc32)cc(Cl)c(F)c1[C@@H]1CNC(=O)C1 | – | patients with B-cell malignancies, plasma | oral, 30 mg, day 15, all cohorts, monotherapy | – | half-life | 10.2 ± 3 h
CO[C@H]1/C=C/O[C@@]2(C)Oc3c(C)c(O)c4c(O)c(c(/C=N/N5CCN(C)CC5)c(O)c4c3C2=O)NC(=O)/C(C)=C\C=C\[C@H](C)[C@H](O)[C@@H](C)[C@@H](O)[C@@H](C)[C@H](OC(C)=O)[C@@H]1C | – | healthy human volunteers | oral, 600 mg, itraconazole cohort, with: gepotidacin 1500 mg | – | incidence of gastrointestinal disorders | 18%
O=C(CCCN1CCC(O)(c2ccc(Cl)cc2)CC1)c1ccc(F)cc1 | – | male Hartley guinea pigs, anaesthetized | intravenous, 0.01 mg/kg group, baseline before infusion | – | heart rate | 226 ± 0.4 beats/min
Cc1nc2cccc(OCC(C)(C)C(=O)NC(C)C)c2c(N)c1C(=O)O | – | Sprague-Dawley rat, plasma | oral, 10 mg/kg, day 1 | relative to: female over male | Cmax ratio female over male | 2.64 ± 0.56
CC(C(=O)NCC(=O)NCC(CNC(=O)CNC(=O)C(C)N1CCN(CC(=O)[O-])CCN(CC(=O)[O-])CCN(CC(=O)[O-])CC1)(CNC(=O)CNC(=O)C(C)N1CCN(CC(=O)[O-])CCN(CC(=O)[O-])CCN(CC(=O)[O-])CC1)CNC(=O)CNC(=O)C(C)N1CCN(CC(=O)[O-])CCN(CC(=O)[O-])CCN(CC(=O)[O-])CC1)N1CCN(CC(=O)[O-])CCN(CC(=O)[O-])CCN(CC(=O)[O-])CC1.[Gd+3].[Gd+3].[Gd+3].[Gd+3] (centres unmarked) | ICP-MS | cynomolgus monkey | dose not given, 57 58 d, PK group | relative to: dose | urinary excretion | 0.01%

Compound | assay | system | setting | how to read | quantity | result
Cc1ccc([C@@H]2O[C@H](CO)[C@@H](O)[C@H](O)[C@H]2O)cc1Cc1ccc(-c2ccc(F)cc2)s1 | – | Japanese type 2 diabetes patients | 25 mg, day 17, 24 h urine collection | relative to: baseline | urinary potassium excretion change | -6.11 mEq
Cl.[2H]C([2H])([2H])CC(=O)c1cnc(NC(=O)C2CC2)cc1Nc1cccc(-c2ncn(C([2H])([2H])[2H])n2)c1OC | geometric mean | human | 100 mg single dose, fasted, liquid | – | CL/F | 8.9 L/h
C=CC(=O)N1CCC(Oc2cc3c(Nc4ccc(Cl)c(Cl)c4F)ncnc3cc2OC)CC1 | – | Sprague-Dawley rat, male, plasma | oral, 2 mg/kg, 1 weeks pretreatment, with: Schisandrin A 20 mg/kg daily pretreatment | – | MRT(0-t) | 5.49 ± 0.81 h
NC/C(=C\F)COc1cccc(Cn2c(=S)[nH]c(=O)c3[nH]cnc32)c1 | – | rat hepatocytes | 1 µM, 1 h | – | remaining compound | 90%
CCn1cc(C(=O)N2CCOCC2)c(=O)c2cc(NC3Cc4ccccc4C3)cnc21 | – | human, fed | oral suspension, 300 mg/day twice daily, day 8, arithmetic mean | – | Cmax | 1230 ng/mL
CNC(=O)c1cc(Oc2ccc(NC(=O)Nc3cc(C(C)(C)C)nn3-c3ccc4ncccc4c3)c(F)c2)ccn1 | item: worst grade 3 | human | oral, dose not given, cycles 1 and 2, Low AUC(0-4 h) subgroup | – | patients with any AE of special interest | 7%
Cc1noc(C)c1-c1cc(C(O)(c2ccccn2)c2ccccn2)c2nc(C3CC3)[nH]c2c1 | – | human patients, plasma | oral, 1.4 mg, cycle 1 day 8, monotherapy | – | Ctau | 60.7 ng/mL
O=C(CCc1ccc(O)cc1)c1c(O)cc(O)cc1O | – | human CSF | concentration not given, mean | – | CSF concentration | not detected
CNC(=O)c1ccc(-c2cnc3ncc(Cc4ccc5ncccc5c4)n3n2)cc1F | – | Japanese patients | oral, 400 mg, grade 3/4 | – | Urticaria dose reduction/interruption | 2%
C[C@@H](O)CCOC(=O)C[C@@H](C)O | – | human | oral drink, dose not given, 180 min post dose, mean | – | systolic blood pressure | 114 mmHg
CCN1/C(=C/C(C)=O)Sc2ccc(F)cc21 | – | cynomolgus monkey | oral, 30 mg/kg, 6 h post-dose | – | QTc interval (Bazett) | 340 ± 20 ms
COc1ccc([C@@H](O)c2cc(-c3ncnc4cc(N5CCOCC5)ccc34)c(F)cc2Cl)nn1 | – | locally advanced rectal cancer | all dose levels overall, with: capecitabine and radiotherapy | – | drug-related blood and lymphatic disorders | 37%
CN(CCC#N)C1CCN(C(=O)Cn2cc(NC(=O)c3cnn4cccnc34)c(-c3cc(Cl)ccc3OC(F)F)n2)CC1 | – | human, single ascending dose | 0.5 mg, day 4 | relative to: baseline | reticulocyte count change | 1.7 10⁹/L
CSc1cc(C)nc(SC)c1NC(=O)CN1CCN(CCSc2nc3ccccc3[nH]2)CC1 | – | mouse Crl:CD1 (ICR), female, cerebrum | intranasal, 50 µL of 3.24 mg/mL solution, daily for 7 days, 120 min, 0.01 N HCl solution vehicle | – | concentration | 2.3 ng/g
CN(C(=O)n1cnc(-c2cccnc2)c1)C1CCCCC1 | – | Wistar rat, pons | oral, 10 mg/kg, 1 h, single dose | – | tissue concentration | 74.3 ± 15 ng/g
CCN1CCN(Cc2ccc(Nc3ncc(F)c(-c4cc(F)c5nc6n(c5c4)[C@H](C)CCC6)n3)nc2)CC1 | – | human, phase Ia | day 28, steady state | – | Tmax | 2 to 7 h
NC1(C(=O)N[C@@H](CCO)c2ccc(Cl)cc2)CCN(c2nc[nH]c3nccc2-3)CC1 | – | metastatic CRPC patients | 320 mg b.i.d., grade 3 to 4, treatment-related, with: enzalutamide 160 mg daily | – | incidence of maculopapular rash | 0%
CCN1CCN(Cc2ccc(NC(=O)c3ccc(C)c(NC(=O)c4cncc(-c5cccs5)c4)c3)cc2C(F)(F)F)CC1 | LC-MS/MS | C57BL/6 mouse, plasma | intraperitoneal, 30 mg/kg single dose, 0.25 h | – | plasma concentration | 552 ng/mL and 532 ng/mL and 956 ng/mL
Cc1cc(-c2nccc3c2ccn3CC(=O)Nc2ccc(-c3cnccn3)cn2)ccn1 | – | healthy human volunteers | oral, 15 mg once daily, 14 days, multiple ascending dose | – | respiratory thoracic mediastinal TEAEs | 11.1%
OCc1nc2ccc(NCc3ccc(C(F)(F)F)cc3)cc2[nH]1 | – | Balb/c mice, male, plasma | intravenous, 1 mg/kg | – | terminal elimination rate constant | 3.61e-05 ± 2.78e-05 s⁻¹
C=CCN1CC(=O)N2[C@@H](Cc3ccc(O)cc3F)C(=O)N(Cc3cccc(N4CC(N5CCN(CC)CC5)C4)n3)C[C@@H]2N1C(=O)NCc1ccccc1 | – | advanced solid tumour patients | oral, 10 mg twice daily, grade ≥3, dose-escalation | – | treatment-related ALT increased | 0%
O=C(Nc1nc2cccc(-c3ccc(CN4CCS(=O)(=O)CC4)cc3)n2n1)C1CC1 | item: musculoskeletal disorders | human rheumatoid arthritis patients | oral, 30 mg once daily, 4 weeks, regardless of relatedness | – | treatment-emergent adverse events | 0%

Excerpt of the above:
Compound | assay | system | setting | how to read | quantity | result
O=C(O)CNC(=O)c1ccccc1 | – | human CSF | concentration not given, mean | – | CSF concentration | not detected
C=CCn1c(=O)c2cnc(Nc3ccc(N4CCN(C)CC4)cc3)nc2n1-c1cccc(C(C)(C)O)n1 | – | human | oral, 175 mg twice daily, monotherapy lead-in, -5 days | geometric mean | AUC(0-t) | 7.5 µM·h
CC(C)NC(=O)COc1cccc(-c2nc(Nc3ccc4[nH]ncc4c3)c3ccccc3n2)c1 | – | human, male, fed, plasma | oral, 200 mg, day 3, geometric mean | – | AUC(0-tau) | 9330 ng·h/mL
CN(C(=O)n1cnc(-c2cccnc2)c1)C1CCCCC1 | – | Wistar rat, pons | oral, 10 mg/kg, 1 h, single dose | – | tissue concentration | 74.3 ± 15 ng/g
